Experimental data pooled from the literature.
Every numbered part comes from another study and shows a few of its results, in no order.

Sample 1
Target: RNA binding protein fox-1 homolog 2, RRM domain, GST-SBP tag (RBFOX2, Homo sapiens, UniProt O43251-10, residues 100-194)
Method: RNA Bind-n-Seq
Molecule type: RNA
Matrix: in vitro
Tested at: 365 nM
Setting: natural RNA segment, single round, ends assumed
Reference: no-protein control
Reading: higher = stronger binding
Endpoint: RBNS enrichment (R)
Residues (chain): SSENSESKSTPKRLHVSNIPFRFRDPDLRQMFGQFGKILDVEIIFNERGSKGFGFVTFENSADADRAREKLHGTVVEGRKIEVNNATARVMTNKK
Sequence = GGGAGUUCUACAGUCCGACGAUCGUAUUCAGAAGCCUUUACUGAUUAAAGUUUUCUUUUAUUUGGGUGGCCGGGAGAGACCCAGGGAGGUUCUGGAGGUUCCUUUCUGUCUCCUGGCCCCACCAGGGAUUUCCUGGAAUUCUCGGGUGCCAA; value = 0.501
Sequence = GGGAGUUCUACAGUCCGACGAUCUUGAAAACGUUAUUUAUAAUGAAAUCAACUAAAACUAUUUUUGCUAUAAGUUCUAUAAGGUGCAUAAAACCCUUAAAUUCAUCUAGUAGCUGUUCCCCCGAACAGGUUUAUGGAAUUCUCGGGUGCCAA; value = 0.827
Sequence = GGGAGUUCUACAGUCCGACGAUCCCUCUCCACCCCCCACAUCGGUCCUCUCAAAUACCCAAUGGGAUUCCAGCUUGAAGGAUUGCAUCCUGCAGGGAAUGAGCACACCUGCCAAGGACACGUGCGCCUGCCUUUGGAAUUCUCGGGUGCCAA; value = 1.63
Sequence = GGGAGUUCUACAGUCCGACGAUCCCCUCCUAUUUCUGCCUCCCUGCUGGGAGCUUUCCUGUUCCCUGGUGUUCCACGAAGGAGGCUCUUCUCAGUCUCUGGGCUCUCCUUUAGAGUUAAGGUCUUAAAAUGUAUGGAAUUCUCGGGUGCCAA; value = 0.439
Sequence = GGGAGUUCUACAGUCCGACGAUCAACGCGGGUGCAGGGGGGCGCGGCUGGGCGGUGCAGCUCCGCCCGGCUCCGCCCCUGCAGCCCACACAGCACAACGUCUUACCGUGCCUAUUACCAAGCGAGUGUUUGUAUGGAAUUCUCGGGUGCCAA; value = 0.463
Sequence = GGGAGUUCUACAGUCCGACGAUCACCCUAUCUGCUUGUCUCGUCCAGGAAGCGUUAGGGCUGAUGGGUGACUCAGCAAGGCAGUGUCAGAGCUGGGACUGGGCGUAGGCCUUUGUCCUCAUCCCCAGCACUGGUGGAAUUCUCGGGUGCCAA; value = 0.229
Sequence = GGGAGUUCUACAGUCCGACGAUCGGUCCAGGUGGGAGUACAAGGAAGGCUGCUUCUACACCCAUGAGCACAAAUACGUCUGUGUGGGACAGUCCACUGAACGUCGUCAUUUAGUCCAGCCCAUUGCAGGCAUUUGGAAUUCUCGGGUGCCAA; value = 0.547
Sequence = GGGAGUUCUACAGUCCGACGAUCGCUGGAUGUCGCAUUGCAUGUUUGCUGAGUCCUCCUCAUUGCUGAUGUUAGGAUCCUUCAACAGUUUCUCAGAUGCCAGCUAUGGCUGGCAUCCAGUAUGGUGGUGUAAUUGGAAUUCUCGGGUGCCAA; value = 26.5
Sequence = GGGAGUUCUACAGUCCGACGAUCACUGGUGCUGUGCUCCAGCCUUAUCAGUUAGGGGACCCAAGGUUUGUUUGGGACCUGGGUACAGGUAAAAGCCAGACUUGGCAGGGACCCCUCUUUCUAGGCUGAACCUUUGGAAUUCUCGGGUGCCAA; value = 0.19
Sequence = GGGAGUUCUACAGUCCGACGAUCGUAGGCUGAGCUGAGAGGGGUGUUCUUUGGCAAGGUUCUCCCUCCUCUAGUUUCUCCCAGGAGCUGGUCCCAAAAGGUCCUCCCUCAGUGGUCUACUUGCAUAUCAUAGGUGGAAUUCUCGGGUGCCAA; value = 0.877
Sequence = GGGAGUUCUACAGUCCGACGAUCCUCUUGACACCAUAGCAGAGCAUCUCCGCAAGGUCCAUCCUCCGGAAUGAGGCUGUUGGGGUGUCCUAACCCAGGUCCUUGUGCUUCACUGACAGUUUGCUCACAGGUUAUGGAAUUCUCGGGUGCCAA; value = 0.271
Sequence = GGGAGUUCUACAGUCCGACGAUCCUGCCAGUGUCAGGCAGGGGCCAGCCCCUCAGCCCCUGAGCCAAGGGGGAAAAGAAGAAAAAGUACCUAACACAAGCUUCCUUUUUGCACAACCGGUCCUCUUGGCUGAGUGGAAUUCUCGGGUGCCAA; value = 0.437

Sample 2
Target: Histone acetyltransferase KAT6A, winged helix 1, GST fusion (KAT6A, Homo sapiens, UniProt Q92794, residues 1-85)
Method: protein binding microarray
Molecule type: double-stranded DNA, one strand shown
Matrix: in vitro
Tested at: not given
Setting: 8-mer, flanks averaged, mean of 2 arrays, mostly near background
Reference: not given
Reading: higher = stronger binding
Endpoint: E-score
Construct (chain): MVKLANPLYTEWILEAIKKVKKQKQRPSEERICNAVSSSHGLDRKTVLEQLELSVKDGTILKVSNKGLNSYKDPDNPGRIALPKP
Sequence = CTCAAACC; value = 0.0234
Sequence = CAGTCACA; value = -0.287
Sequence = ACCATCAT; value = -0.265
Sequence = ATAACCGA; value = -0.00718
Sequence = GTATTGGA; value = -0.00724
Sequence = CTATAACA; value = -0.0814
Sequence = AGAGGCGC; value = 0.266
Sequence = CCGTCGGA; value = 0.455
Sequence = ATGCAGCG; value = 0.167
Sequence = AAAACGAT; value = -0.138
Sequence = AACTTGGA; value = 0.0781
Sequence = AGGCTGCA; value = -0.224
Sequence = GCCAACGA; value = -0.0354
Sequence = TAACGTCA; value = -0.196
Sequence = AGGCCCCC; value = 0.0795
Sequence = CACCGATC; value = 0.0806
Sequence = ACTCACAC; value = -0.112
Sequence = AACCGGGG; value = 0.243
Sequence = AAAAAGCC; value = 0.107
Sequence = ACCCCTTA; value = -0.0799
Sequence = AGTGAAAT; value = -0.316
Sequence = GGTTAGTA; value = 0.0335
Sequence = TAAGGGCA; value = -0.172
Sequence = AACTACGG; value = 0.234
Sequence = CGTCCTAA; value = -0.128

Sample 3
Target: Prothrombin, mature alpha-thrombin (F2, Homo sapiens, UniProt P00734)
Method: aptamer microarray, sandwich
Molecule type: DNA with 2'F-ANA
Matrix: in vitro
Tested at: 200 nM
Setting: whole 15-mer aptamer, many near background
Together with: Cy3 exosite-II aptamer, 400 nM
Reading: higher = stronger binding
Endpoint: mean fluorescence intensity
Sequence: GGTTGGTGTGGTTGG
Modification = 2'F-ANA at 4 7 8 10 14; value = 88.6 a.u.
Modification = 2'F-ANA at 1 3 5 6 7 8 9 10 11 14 15; value = 67.7 a.u.
Modification = 2'F-ANA at 2 9 10 11 13; value = 108 a.u.
Modification = 2'F-ANA at 1 6 11; value = 144 a.u.
Modification = 2'F-ANA at 1 3 4 9 10 11 12; value = 88.5 a.u.
Modification = 2'F-ANA at 1 5 6 7 8 10 12 14; value = 44.8 a.u.
Modification = 2'F-ANA at 2 3 5 6 7 9; value = 95.3 a.u.
Modification = 2'F-ANA at 2 5 7 9 12; value = 159 a.u.
Modification = 2'F-ANA at 3 4 6 8 10 14; value = 191 a.u.
Modification = 2'F-ANA at 3 5 6 7 8 9 13; value = 89.6 a.u.
Modification = 2'F-ANA at 5 6 7 11 14 15; value = 44.5 a.u.
Modification = 2'F-ANA at 1 2 6 10 11 13 14 15; value = 51.3 a.u.
Modification = 2'F-ANA at 2 4 5 6 7 8 12 15; value = 142 a.u.
Modification = 2'F-ANA at 2 3 5 6 7 8 9 10 12 13 14 15; value = 52.3 a.u.
Modification = 2'F-ANA at 2 5 6 7 8 10 11 12 13 14 15; value = 66.2 a.u.
Modification = 2'F-ANA at 1 2 3 4 5 6 7 8 9 12 14 15; value = 67.6 a.u.
Modification = 2'F-ANA at 3 5 6 9 11 12 13 14; value = 55.7 a.u.
Modification = 2'F-ANA at 2 3 4 5 6 8 9 12 13 14 15; value = 50.4 a.u.
Modification = 2'F-ANA at 6 10 15; value = 158 a.u.
Modification = 2'F-ANA at 1 4 5 8 9 10 11 13 15; value = 60.2 a.u.
Modification = 2'F-ANA at 1 2 3 6 7 8 11 12 14; value = 85.4 a.u.
Modification = 2'F-ANA at 4 7 9 11 12 13 15; value = 298 a.u.
Modification = 2'F-ANA at 1 2 3 5 6 7 8 9 10 11 13 15; value = 52.7 a.u.
Modification = 2'F-ANA at 1 6 7 11 12 13 15; value = 231 a.u.
Modification = 2'F-ANA at 5 6 8 9 10 15; value = 73.9 a.u.

Sample 4
Target: Sal-like protein 4, full length isoform A (SALL4, Homo sapiens, UniProt Q9UJQ4, residues 1-1053)
Chain of UniProt Q9UJQ4 (whole entry, looked up): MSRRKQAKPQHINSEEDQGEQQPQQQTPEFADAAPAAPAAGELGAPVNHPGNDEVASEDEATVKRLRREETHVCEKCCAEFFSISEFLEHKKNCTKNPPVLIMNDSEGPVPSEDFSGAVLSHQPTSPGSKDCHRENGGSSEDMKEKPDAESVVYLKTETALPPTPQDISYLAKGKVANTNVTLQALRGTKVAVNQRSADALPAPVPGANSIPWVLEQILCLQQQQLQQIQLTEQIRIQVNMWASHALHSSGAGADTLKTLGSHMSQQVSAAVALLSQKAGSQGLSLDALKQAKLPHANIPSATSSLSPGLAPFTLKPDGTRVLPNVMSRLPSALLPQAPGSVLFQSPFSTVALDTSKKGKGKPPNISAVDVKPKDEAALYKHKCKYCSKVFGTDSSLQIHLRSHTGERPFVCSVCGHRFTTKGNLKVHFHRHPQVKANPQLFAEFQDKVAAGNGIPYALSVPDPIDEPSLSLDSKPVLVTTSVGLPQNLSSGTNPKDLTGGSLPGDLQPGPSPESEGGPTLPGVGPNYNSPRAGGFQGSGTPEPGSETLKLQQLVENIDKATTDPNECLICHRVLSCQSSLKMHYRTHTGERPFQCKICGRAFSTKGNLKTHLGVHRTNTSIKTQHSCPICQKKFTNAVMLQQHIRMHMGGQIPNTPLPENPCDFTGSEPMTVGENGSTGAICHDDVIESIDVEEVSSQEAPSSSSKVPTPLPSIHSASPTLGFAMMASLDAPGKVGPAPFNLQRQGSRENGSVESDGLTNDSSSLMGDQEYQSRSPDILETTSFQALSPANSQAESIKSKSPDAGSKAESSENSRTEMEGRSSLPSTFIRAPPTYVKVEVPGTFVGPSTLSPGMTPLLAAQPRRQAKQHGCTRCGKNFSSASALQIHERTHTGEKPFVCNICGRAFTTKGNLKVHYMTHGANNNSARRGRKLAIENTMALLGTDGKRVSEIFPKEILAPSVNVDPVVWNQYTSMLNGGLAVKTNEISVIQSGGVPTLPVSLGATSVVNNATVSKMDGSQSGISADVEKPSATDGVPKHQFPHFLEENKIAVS
Method: universal PBM
Molecule type: double-stranded DNA, one strand shown
Matrix: in vitro
Tested at: 600 nM
Setting: 8-mer, flanks averaged, mean of replicates
Reading: higher = stronger binding
Endpoint: E-score
Sequence = GGTGAAAC; value = -0.079
Sequence = TAACGGGA; value = 0.138
Sequence = TGAGAGCA; value = -0.0352
Sequence = GGTGTGAC; value = -0.321
Sequence = AGGCAATC; value = -0.0406
Sequence = ATCTGTTC; value = -0.0606
Sequence = ACCAGTGC; value = -0.307
Sequence = TATTTTCA; value = 0.29
Sequence = CCGGCCAC; value = -0.353
Sequence = CGGATAGC; value = -0.102
Sequence = AGTGAAGA; value = 0.0885
Sequence = CCTAATAG; value = 0.0563
Sequence = AATCTCGA; value = 0.135
Sequence = ATCATTCG; value = 0.224
Sequence = GTAGACAC; value = -0.0111
Sequence = ATCACTCC; value = -0.105
Sequence = CGTAAAAA; value = 0.288
Sequence = GTTAGGCA; value = 0.0655
Sequence = AGTCCCGG; value = -0.326
Sequence = TACACAAA; value = 0.321
Sequence = GCACCGAC; value = -0.276

Repeated from above (sample 3):
Modification = 2'F-ANA at 1 5 6 7 8 10 12 14; value = 44.8 a.u.
Modification = 2'F-ANA at 2 3 5 6 7 9; value = 95.3 a.u.
Modification = 2'F-ANA at 2 5 7 9 12; value = 159 a.u.
Modification = 2'F-ANA at 3 4 6 8 10 14; value = 191 a.u.
Modification = 2'F-ANA at 3 5 6 7 8 9 13; value = 89.6 a.u.
Modification = 2'F-ANA at 5 6 7 11 14 15; value = 44.5 a.u.
Modification = 2'F-ANA at 1 2 6 10 11 13 14 15; value = 51.3 a.u.
Modification = 2'F-ANA at 2 4 5 6 7 8 12 15; value = 142 a.u.
Modification = 2'F-ANA at 2 3 5 6 7 8 9 10 12 13 14 15; value = 52.3 a.u.
